Measured values of several laboratories.
Compare with care: the assays were run in different laboratories. “And” joins repeats or separate records; there may be more than shown. ± marks the error that the study gave.

C=Cc1c(C)c2cc3nc(c(CC(=O)[O-])c4[n-]c(cc5nc(cc1[n-]2)C(C)=C5CC)c(C)c4C(=O)[O-])C(CCC(=O)[O-])C3C.[Cu+2].[Na+].[Na+].[Na+] (stereo not drawn)  serum albumin (Wistar rat, male; oral, 500 mg/kg daily, 28 days): 1 ± 0.06 g/dL
O=C1NC2(CC2)COc2ncc(F)cc2[C@H]2COCCN2c2ccn3ncc1c3n2  alanine aminotransferase activity (Sprague-Dawley rat, male, serum; oral, 2.5 mg/kg/day, 4 weeks daily, end of recovery period): 34.8 ± 11.8 U/L
CN[C@H](CC(C)C)C(=O)N[C@H]1C(=O)N[C@@H](CC(N)=O)C(=O)N[C@H]2C(=O)N[C@H]3C(=O)N[C@H](C(=O)N[C@H](C(=O)O)c4cc(O)cc(O)c4-c4cc3ccc4O)[C@H](O)c3ccc(c(Cl)c3)Oc3cc2cc(c3O[C@@H]2O[C@H](CO)[C@@H](O)[C@H](O)[C@H]2O[C@H]2C[C@](C)(NCc3ccc(-c4ccc(Cl)cc4)cc3)[C@H](O)[C@H](C)O2)Oc2ccc(cc2Cl)[C@H]1O  AUC (mouse, plasma; intravenous, 10 mg/kg): 135000 ng·h/mL
COc1ccc(CNc2ccc3c(c2)S(=O)(=O)C=C3)cc1  CD8+ cells (flow cytometry; male C57BL/6 mice, spleen; i.p., 20 mg/kg, 8 days; reference: CD45+ cells): 10.3%
CCn1ccc(-c2cc(-c3cnn(C)c3)cc([C@@H](C)NC(=O)c3cc(OCCN(C)C)ccc3C)c2)n1  AUC(0-t) (C57BL/6J mice, male, plasma; iv, 10 mg/kg): 6250 ng·h/mL
Cn1nc(NS(C)(=O)=O)c2c(Cl)ccc(-n3c([C@H](Cc4cc(F)cc(F)c4)NC(=O)Cn4nc(C(F)F)c5c4C(F)(F)[C@@H]4C[C@H]54)nc4nc(OCCC(F)(F)F)ccc4c3=O)c21  half-life (human, plasma; oral, 25 mg single dose, powder in bottle, geometric mean): 64 h
CSCC[C@H](NC(=O)[C@@H](NC(=O)[C@H](CC(C)C)NC(=O)[C@@H](NC(=O)[C@H](Cc1c[nH]cn1)NC(=O)CCCCCNC(=O)[C@H](CCCNC(=N)N)NC(=O)[C@H](CCCNC(=N)N)NC(=O)[C@H](CCCNC(=N)N)NC(=O)[C@H](CCC(N)=O)NC(=O)[C@H](CCCNC(=N)N)NC(=O)[C@H](CCCNC(=N)N)NC(=O)[C@H](CCCCN)NC(=O)[C@H](CCCCN)NC(=O)[C@H](CCCNC(=N)N)NC(=O)CNC(=O)[C@@H](N)Cc1ccc(O)cc1)C(C)C)C(C)C)C(=O)N[C@@H](CS)C(=O)N[C@@H](C)C(=O)N[C@H](C(N)=O)[C@@H](C)O  Mono (C57BL/6J mice; Alzet osmotic pump, 3 mg/kg, 8 weeks; reference: leukocytes): 7% and 1%
CC(C)C[C@H](NC(=O)[C@@H](N)CO)C(=O)N[C@@H](Cc1c[nH]c2ccccc12)C(=O)N[C@@H](CCC(=O)O)C(=O)N[C@@H](CC(N)=O)C(=O)N[C@@H](Cc1ccccc1)C(=O)N[C@@H](CCCCN)C(N)=O  HC50 (horse erythrocytes; 2 h, 37 °C; reference: Triton X-100): > 128 µM
CC[C@H](C)[C@H](NC(=O)[C@H](Cc1ccc(O)cc1)NC(=O)[C@H](C)NC(=O)[C@H](CC(=O)O)NC(=O)[C@H](CC(C)C)NC(=O)[C@H](C)NC(=O)[C@H](C)NC(=O)[C@H](CCCCN)NC(=O)CNC(=O)[C@@H](NC(=O)[C@H](Cc1c[nH]cn1)NC(=O)[C@H](CCCCN)NC(=O)CNC(=O)[C@@H](NC(=O)[C@H](Cc1c[nH]cn1)NC(=O)[C@@H](NC(=O)[C@H](C)NC(=O)[C@H](CCCCN)NC(=O)[C@H](CCCCN)NC(=O)[C@@H](NC(=O)[C@H](Cc1c[nH]c2ccccc12)NC(=O)[C@H](CCCCN)NC(=O)[C@H](CCCNC(=N)N)NC(=O)[C@H](Cc1c[nH]c2ccccc12)NC(=O)CN)[C@@H](C)CC)[C@@H](C)O)C(C)C)[C@@H](C)CC)C(N)=O  chronic toxic concentration (zebrafish embryos 28 hpf, E3 medium; 24 h): 25 µM
CSCC[C@H](N)C(=O)N[C@@H](C)C(=O)N[C@@H](CCCNC(=N)N)C(=O)N[C@@H](CCCNC(=N)N)C(=O)N[C@@H](CC(=O)O)C(=O)N[C@@H](CCCCN)C(=O)N[C@H](C(=O)N[C@@H](CC(=O)O)C(=O)N[C@@H](Cc1ccccc1)C(=O)N[C@@H](C)C(=O)N[C@@H](CCCNC(=N)N)C(=O)N[C@@H](CCCNC(=N)N)C(=O)N[C@@H](CCCNC(=N)N)C(=O)N[C@@H](CCCNC(=N)N)C(=O)NCCCCCC(=O)NCCCCC(NC(=O)CCCCCNC(=O)[C@H](CCCNC(=N)N)NC(=O)[C@H](CCCNC(=N)N)NC(=O)[C@H](CCCNC(=N)N)NC(=O)[C@H](CCCNC(=N)N)NC(=O)[C@H](C)NC(=O)[C@H](Cc1ccccc1)NC(=O)[C@H](CC(=O)O)NC(=O)[C@@H](NC(=O)[C@H](CCCCN)NC(=O)[C@H](CC(=O)O)NC(=O)[C@H](CCCNC(=N)N)NC(=O)[C@H](CCCNC(=N)N)NC(=O)[C@H](C)NC(=O)[C@@H](N)CCSC)[C@@H](C)O)C(=O)NCCCCC(NC(=O)C(CCCCNC(=O)CCCCCNC(=O)[C@H](CCCNC(=N)N)NC(=O)[C@H](CCCNC(=N)N)NC(=O)[C@H](CCCNC(=N)N)NC(=O)[C@H](CCCNC(=N)N)NC(=O)[C@H](C)NC(=O)[C@H](Cc1ccccc1)NC(=O)[C@H](CC(=O)O)NC(=O)[C@@H](NC(=O)[C@H](CCCCN)NC(=O)[C@H](CC(=O)O)NC(=O)[C@H](CCCNC(=N)N)NC(=O)[C@H](CCCNC(=N)N)NC(=O)[C@H](C)NC(=O)[C@@H](N)CCSC)[C@@H](C)O)NC(=O)CCCCCNC(=O)[C@H](CCCNC(=N)N)NC(=O)[C@H](CCCNC(=N)N)NC(=O)[C@H](CCCNC(=N)N)NC(=O)[C@H](CCCNC(=N)N)NC(=O)[C@H](C)NC(=O)[C@H](Cc1ccccc1)NC(=O)[C@H](CC(=O)O)NC(=O)[C@@H](NC(=O)[C@H](CCCCN)NC(=O)[C@H](CC(=O)O)NC(=O)[C@H](CCCNC(=N)N)NC(=O)[C@H](CCCNC(=N)N)NC(=O)[C@H](C)NC(=O)[C@@H](N)CCSC)[C@@H](C)O)C(N)=O)[C@@H](C)O (stereo partly drawn)  tissue distribution (C57BL/6 mouse female, colon; dose not given, 6 h; reference: total): 3.29% and 4.44% and 1.52%
CC(C)=CCC/C(C)=C\CCn1cc(CC(C)(P(=O)(O)O)P(=O)(O)O)nn1  biliary excretion (mouse CD-1; intravenous, 0.3 mg/kg, 24 h; reference: dose): 0.023%
CC(C)[C@@H]1NC(=O)CNC(=O)[C@H](CC(N)=O)NC(=O)[C@H](CCCNC(=N)N)NC(=O)[C@H](Cc2ccc(O)cc2)NC(=O)[C@H](C(C)C)NC(=O)[C@@H](NC(=O)[C@@H](NC(=O)[C@H](CC(N)=O)NC(=O)[C@H](Cc2c[nH]c3ccccc23)NC(=O)[C@H](C)NC(=O)[C@H](Cc2ccccc2)NC(=O)CNC(=O)[C@H](CCCCN)NC(=O)[C@H](Cc2ccccc2)NC(=O)[C@H](Cc2ccccc2)NC(=O)[C@H](CCCCN)NC(=O)OCC2c3ccccc3-c3ccccc32)C(C)C)CSSC[C@@H](C(=O)N[C@@H](Cc2c[nH]cn2)C(=O)N[C@@H](CCCNC(=N)N)C(=O)N[C@@H](CCCNC(=N)N)C(=O)N[C@@H](C)C(=O)N[C@@H](CC(N)=O)C(N)=O)NC(=O)[C@H](C(C)C)NC(=O)[C@H](CCCNC(=N)N)NC1=O  globulin (ICR mice, serum; intraperitoneal, 5 mg/kg, day 5): 18.62 ± 0.07 g/L

Some of these lines once more:
CCn1ccc(-c2cc(-c3cnn(C)c3)cc([C@@H](C)NC(=O)c3cc(OCCN(C)C)ccc3C)c2)n1  AUC(0-t) (C57BL/6J mice, male, plasma; iv, 10 mg/kg): 6250 ng·h/mL
